Measured values pooled from the literature.
Compare with care: the assays were run in different laboratories. ± gives the spread as reported.
PPO3: PPO3 (Agaricus bisporus, UniProt C7FF04)
T1: DNA hairpin, hairpin, TTTT loop; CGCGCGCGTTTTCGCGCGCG
T2: RNA repeat, CUG repeat (Homo sapiens); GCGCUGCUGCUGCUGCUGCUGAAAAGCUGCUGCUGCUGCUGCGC

Compound | tested on | test | system | conditions | how to read | quantity | value
CNc1ccccc1C(=O)O[C@H]1C[C@H](n2cnc3c(N)ncnc32)O[C@@H]1COP(=O)(O)OP(=O)(O)O | Unconventional myosin-Va (Gallus gallus, UniProt Q02440, D297C/G292C/I296C/S293C/V295G) | stopped-flow FRET, linear fit intercept |  | 25 °C, together with: MgCl2 2 mM |  | dissociation rate constant | 8.08 ± 0.6 s⁻¹
CC(C)C[C@H](NC(=O)[C@H](CCC(=O)O)NC(=O)[C@@H](N)CS)C(=O)N[C@@H](CC(N)=O)C(=O)O | PPO3 | enzyme activity, inhibitor |  | 200 µM |  | remaining activity | 47.8%
COc1cc(CNC(=O)C[C@H](C)CCC=C(C)C)ccc1OCc1cn(-c2ccccc2[N+](=O)[O-])nn1 | SF-268 CNS cancer cells | SRB |  | 10 µM, 48 h |  | growth percent | 78.1%
O=C(CCn1ccc2ccc(Cl)cc21)N(c1ccc(F)cc1)c1ccc(F)cc1 | Proteasome subunit alpha type-2/Proteasome subunit alpha type-6, 20S proteasome (Homo sapiens, UniProt P25787+P60900) | proteolysis, activator, fluorogenic peptide | purified 20S proteasome | up to 30 µM, together with: Suc-LLVY-AMC, Z-LLE-AMC, Boc-LRR-AMC | relative to: vehicle | maximum fold increase | 4.4 ± 2.7
O=C(Cc1ccccc1Nc1c(Cl)cccc1Cl)O[C@@H]1O[C@H](C(=O)O)[C@@H](O)[C@H](O)[C@H]1O | ATP-binding cassette sub-family C member 4 (ABCC4, Homo sapiens, UniProt O15439) | LTC4 transport, inhibitor | inside-out membrane vesicles | together with: LTC4 |  | IC50 | > 300 µM
C[C@H]1CN(C(=O)c2nc(Nc3cc(C4CC4)[nH]n3)c3cc(Cl)ccc3n2)CCN1 | Serine/threonine-protein kinase PAK 4 (PAK4, Homo sapiens, UniProt O96013) |  |  | from Ki |  | ligand efficiency | 0.39
CC[C@H](C)[C@H](NC(=O)[C@@H](NC(=O)[C@H](CCCCN)NC(=O)[C@@H](NC(=O)[C@@H]1CCCN1[C@@H]1CN(C(=O)[C@@H](NC(=O)[C@@H](NC(=O)[C@@H](NC(=O)[C@@H](NC(=O)[C@@H](NC(=O)[C@@H](N)CCCCN)C(C)C)C(C)C)C(C)C)[C@@H](C)CC)[C@@H](C)O)CC[C@H]1NS(=O)(=O)c1ccc(C)cc1)[C@@H](C)O)C(C)C)C(=O)N[C@@H](CC(C)C)C(=O)N[C@@H](Cc1c[nH]cn1)C(N)=O | Islet amyloid polypeptide (IAPP, Homo sapiens, UniProt P10997) | inhibitor, ThT fluorescence |  | 1-fold over protein, pH 7.4, room temperature, together with: IAPP 5 µM |  | fibrillization inhibition | inactive
[Ru+2].[Ru+2].c1cnc2c(c1)c1nc(-c3ccc(OCCOCCOc4ccc(-c5nc6c7cccnc7c7ncccc7c6[nH]5)cc4)cc3)[nH]c1c1cccnc12.c1cnc2c(ccc3nccnc32)n1.c1cnc2c(ccc3nccnc32)n1.c1cnc2c(ccc3nccnc32)n1.c1cnc2c(ccc3nccnc32)n1 | T1, DNA hairpin, hairpin, TTTT loop | BLI |  | pH 7.04, K+ 100 mM |  | Kd | 7.61 µM
O=c1cnnc(Nc2ccc(O)cc2)[nH]1 | DNA dC->dU-editing enzyme APOBEC-3B, C-terminal domain (Homo sapiens, UniProt Q9UH17) | binding, 1H CPMG NMR |  | 20 µM protein |  | signal attenuation | 33.4 ± 4.7%
CCc1nc2cc3ccccc3cc2cc1C(=O)N[C@@H](CCCCN)C(=O)N[C@@H](C/C=C\C[C@H](NC(=O)[C@H](CCCCN)NC(=O)c1cc2cc3ccccc3cc2nc1CC)C(=O)N1CCC[C@H]1C(=O)NCCCN)C(=O)N1CCC[C@H]1C(=O)NCCCN | (CAG)10 RNA | SPR |  |  |  | residence time | 227 s
Cc1ncsc1-c1ccc([C@@H]2CCCCCCNC(=O)C[C@@H]3N=C(c4ccc(cc4)OCCCCCC(=O)N[C@@H](C(C)(C)C)C(=O)N4C[C@H](O)C[C@H]4C(=O)N2)c2c(sc(C)c2C)-n2c(C)nnc23)cc1 | Bromodomain-containing protein 4 (BRD4, Homo sapiens, UniProt O60885) | protein degradation, degrader, immunoblotting | PC-3 | 24 h |  | hook effect onset concentration | > 60 µM
CCOC(=O)[C@H](CCCNC(N)=O)NC(=O)[C@H](Cc1c[nH]c2ccccc12)NC(=O)[C@@H]1CCCCN1C(=O)[C@H](Cc1ccccc1)N(C)C(=O)CCl | Peptidyl-prolyl cis-trans isomerase NIMA-interacting 1 (PIN1, Homo sapiens, UniProt Q13526) | cell-free assay, FP |  |  |  | kinact/KI | 740 M⁻¹ s⁻¹
[3H]C([3H])([3H])c1cnccc1CN1C[C@@H](c2cc(F)c(F)c(F)c2)CC1=O | Synaptic vesicle glycoprotein 2A (SV2A, Homo sapiens, UniProt Q7L0J3) | radioligand binding, autoradiography | human, post-mortem temporal lobe | 2 nM |  | total binding | 111 fmol/mg
CN(C)c1ncnc2c1ncn2[C@@H]1O[C@@H]2COP(=O)(O)O[C@H]3[C@@H](O)[C@H](n4cnc5c(N(C)C)ncnc54)O[C@@H]3COP(=O)(O)O[C@H]2[C@H]1O | ydaO riboswitch, Bacillus subtilis, wild type | competition gel shift |  | up to 200 µM, together with: c-di-AMP |  | binding | no binding
CC[C@H](C)[C@H](NC(=O)CNC(C)=O)C(=O)N[C@@H](CCCNC(=N)N)C(=O)N[C@@H](CCC(=O)O)C(=O)N[C@@H](C)C(=O)N[C@H](C(=O)N[C@@H](CC(C)C)C(=O)N[C@@H](CCCNC(=N)N)C(=O)N[C@@H](C)C(=O)N[C@@H](Cc1c[nH]c2ccccc12)C(=O)N[C@@H](CCC(=O)O)C(=O)N[C@@H](CCCNC(=N)N)C(=O)N[C@@H](CCCNC(=N)N)C(=O)N[C@@H](Cc1ccc(O)cc1)C(=O)NCC(=O)N[C@@H](Cc1ccccc1)C(=O)N1CCC[C@H]1C(=O)N[C@@H](CCCNC(=N)N)C(=O)N1CCC[C@H]1C(=O)N[C@@H](CC(C)C)C(=O)N[C@@H](CCCNC(=N)N)C(=O)N[C@@H](CO)C(=O)N[C@@H](CCC(=O)O)C(N)=O)[C@@H](C)O | Antirepressor protein CarS (carS, Myxococcus xanthus, UniProt Q06911) | ITC |  | concentration not given, pH 7.5, 25 °C |  | binding enthalpy | -11.7 ± 0.3 kcal/mol
CC[C@H](C)[C@H](NC(=O)[C@H](CCC(=O)O)NC(=O)[C@H](CC(=O)O)NC(=O)[C@H](CC(C)C)NC(=O)[C@@H](NC(=O)[C@H](CCCCN)NC(=O)[C@H](CCCCN)NC(=O)[C@@H](NC(=O)[C@H](CCC(=O)O)NC(=O)[C@H](CCC(=O)O)NC(=O)[C@H](CCC(=O)O)NC(=O)[C@H](CO)NC(=O)[C@H](CC(C)C)NC(=O)[C@H](CC(=O)O)NC(=O)[C@H](CC(C)C)NC(=O)CNC(=O)[C@H](CCCNC(=N)N)NC(=O)[C@H](CC(C)C)NC(=O)[C@H](CO)NC(=O)CNC(=O)CNC(=O)CNC(=O)CCCC[C@@H]1SC[C@@H]2NC(=O)N[C@@H]21)C(C)C)[C@@H](C)CC)C(=O)N[C@@H](C)C(=O)N[C@@H](CCCCN)C(=O)N[C@@H](CC(=O)O)C(=O)O | Fab B11 antibody (human) | binding, biolayer interferometry |  |  | relative to: alanine mutant over wild type | Kd ratio | 2.1
CC(C)CC(NC(=O)C(NC(=O)NC(C(=O)O)C(C)C)C1CCNC(=N)N1)C(=O)NCCCNC(C(=O)O)C(OC1OC(CN)C(O)C1O)C1OC(n2ccc(=O)[nH]c2=O)C(O)C1O (stereo not shown) | Phospho-N-acetylmuramoyl-pentapeptide-transferase (mraY, Aquifex aeolicus, UniProt O66465, H325A) | ITC |  | H325A mutant |  | ΔH | -11.3 ± 0.7 kcal/mol
CCCCCCCCCCCC(=O)Nc1ccc(OC)nc1C | Carboxylesterase 3 (CES3, Homo sapiens, UniProt Q6UWW8) | substrate |  | 50 µM, pH 8, 37 °C, enzyme purity 3% |  | specific activity | 9.8 pmol/min/µg
CC(C)C[C@H](NC(=O)[C@H](CC(N)=O)NC(=O)[C@H](CCCNC(=N)N)NC(=O)[C@@H](N)CS)C(=O)O | PPO3 | enzyme activity, inhibitor |  | 12.5 µM |  | remaining activity | 78.4%
CCCC[C@H](NC(=O)COCC(=O)NCCCOCCOCCOCCCNC(=O)CNC(=O)[C@@H]1CCCN1C(=O)CNC(=O)[C@@H]1CCCN1C(=O)CNC(=O)[C@@H]1CCCN1C(=O)CNC(=O)[C@@H]1CCCN1C(=O)CNC(=O)[C@@H]1CCCN1C(=O)CNC(=O)[C@@H]1CCCN1C(=O)CNC(=O)[C@@H]1CCCN1C(=O)CNC(=O)[C@@H]1CCCN1C(=O)CNC(=O)[C@@H]1CCCN1C(=O)CNC(=O)[C@@H]1CCCN1C(=O)CNC(=O)[C@@H]1CCCN1C(=O)CNC(=O)[C@@H]1CCCN1C(=O)COCC(=O)NCCCOCCOCCOCCCNC(=O)[C@H](Cc1c[nH]c2ccccc12)NC(=O)[C@H](CCCNC(=N)N)NC(=O)[C@@H](Cc1ccccc1)NC(=O)[C@H](Cc1c[nH]cn1)NC(=O)[C@H](CCC(=O)O)NC(=O)[C@H](CCCC)NC(=O)[C@H](CO)NC(C)=O)C(=O)NCC(=O)N[C@@H](Cc1c[nH]c2ccccc12)C(=O)N[C@@H](CCCC)C(=O)N[C@@H](CC(=O)O)C(=O)N[C@@H](Cc1ccccc1)C(N)=O | CCKBR/MC4R (Homo sapiens, UniProt P32239+P32245) | bivalent binding | cells expressing CCK2R and MC4R | together with: Eu-DTPA-CCK-8 | relative to: single- over dual-expressing cells | IC50 ratio | 3 fold
CC1CCCn2cc(-c3cccc(NC(=O)CCOCCOCCOCCOCCOCCC(=O)Nc4cccc(-c5cn6c(n5)C(C)CCC6)c4)c3)nc21 (stereo not shown) | T2, RNA repeat, CUG repeat (Homo sapiens) | FRET thermal melting |  | 50 µM |  | change in melting temperature | 1.3 °C
CC[C@H](C)[C@H](NC(=O)[C@H](CCCCN)NC(=O)[C@H](CCCCN)NC(=O)[C@@H](NC(=O)[C@H](CCC(=O)O)NC(=O)[C@H](CCC(=O)O)NC(=O)[C@H](CCC(=O)O)NC(=O)[C@H](CO)NC(=O)[C@H](CC(C)C)NC(=O)[C@H](CC(=O)O)NC(=O)[C@H](CC(C)C)NC(=O)CNC(=O)[C@H](C)NC(=O)[C@H](CC(C)C)NC(=O)[C@H](CO)NC(=O)CNC(=O)CNC(=O)CNC(=O)CCCC[C@@H]1SC[C@@H]2NC(=O)N[C@@H]21)C(C)C)C(=O)N[C@@H](CC(C)C)C(=O)N[C@@H](CC(=O)O)C(=O)N[C@@H](CCC(=O)O)C(=O)N[C@H](C(=O)N[C@H](C(=O)N[C@@H](CCCCN)C(=O)N[C@@H](CC(=O)O)C(=O)O)C(C)C)[C@@H](C)CC | Fab B11 antibody (human) | binding, biolayer interferometry |  |  | relative to: alanine mutant over wild type | Kd ratio | 1.4
[3H]C([3H])([3H])Nc1ccc(-c2nc3ccc(O)cc3o2)cn1 |  | autoradiography, refers to: amyloid-β plaques | human AD brain sections | 3 nM | relative to: grey over white matter | grey to white matter binding ratio | increased
CC(=O)Nc1ncc(CN2CC[C@H](Oc3cccc([18F])n3)C[C@@H]2C)s1 | Protein O-GlcNAcase (OGA, Homo sapiens, UniProt O60502) | PET | human, brain | concentration not given, VT 90% of 3-h value |  | time to stable VT | 110 min
CC(C)C[C@H](NC(=O)[C@H](CO)NC(=O)[C@H](CC(C)C)NC(=O)[C@@H]1CCCN1C(=O)CNC(=O)[C@H](Cc1ccccc1)NC(=O)OCC1c2ccccc2-c2ccccc21)C(=O)N[C@@H](CCCNC(=N)N)C(=O)N[C@@H](CO)C(=O)N[C@@H](CCCCN)C(=O)O | Matrix metalloproteinase-9 (MMP9, Homo sapiens, UniProt P14780) | substrate, HPLC |  | 500 µM, 72 h, pH 7.5, 37 °C |  | hydrolysis product | 81%

For quick reference, copied from above:
Compound | tested on | test | system | conditions | how to read | quantity | value
O=C(Cc1ccccc1Nc1c(Cl)cccc1Cl)O[C@@H]1O[C@H](C(=O)O)[C@@H](O)[C@H](O)[C@H]1O | ATP-binding cassette sub-family C member 4 (ABCC4, Homo sapiens, UniProt O15439) | LTC4 transport, inhibitor | inside-out membrane vesicles | together with: LTC4 |  | IC50 | > 300 µM
CNc1ccccc1C(=O)O[C@H]1C[C@H](n2cnc3c(N)ncnc32)O[C@@H]1COP(=O)(O)OP(=O)(O)O | Unconventional myosin-Va (Gallus gallus, UniProt Q02440, D297C/G292C/I296C/S293C/V295G) | stopped-flow FRET, linear fit intercept |  | 25 °C, together with: MgCl2 2 mM |  | dissociation rate constant | 8.08 ± 0.6 s⁻¹
